Measurements of several laboratories.
Each line is one published result; not all experiments were run side by side. ± gives the spread as reported.
Nuclear receptor subfamily 2 group C member 2 ligand-binding domain: Nuclear receptor subfamily 2 group C member 2, ligand-binding domain (Homo sapiens, UniProt P49116)
UniProt P49116, sequence (whole entry, looked up): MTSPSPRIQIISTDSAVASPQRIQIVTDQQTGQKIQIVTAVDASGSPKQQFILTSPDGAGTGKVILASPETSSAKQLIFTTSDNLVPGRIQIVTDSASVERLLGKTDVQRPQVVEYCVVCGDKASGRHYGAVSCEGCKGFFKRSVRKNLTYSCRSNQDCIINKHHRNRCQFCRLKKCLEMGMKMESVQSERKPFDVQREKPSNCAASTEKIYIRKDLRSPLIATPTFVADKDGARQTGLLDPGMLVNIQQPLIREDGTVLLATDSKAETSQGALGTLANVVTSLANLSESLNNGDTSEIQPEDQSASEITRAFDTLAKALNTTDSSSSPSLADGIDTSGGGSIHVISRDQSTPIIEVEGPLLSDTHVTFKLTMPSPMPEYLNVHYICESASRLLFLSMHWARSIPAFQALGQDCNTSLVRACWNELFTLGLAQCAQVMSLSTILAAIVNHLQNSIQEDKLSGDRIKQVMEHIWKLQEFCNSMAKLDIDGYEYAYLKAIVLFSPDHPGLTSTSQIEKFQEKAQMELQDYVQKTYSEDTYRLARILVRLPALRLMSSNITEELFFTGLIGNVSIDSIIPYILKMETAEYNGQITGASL
YWHAG/RELA phospho-Ser45 p65 peptide: YWHAG/RELA, phospho-Ser45 p65 peptide (Homo sapiens, UniProt P61981+Q04206)
UniProt P61981, sequence (whole entry, looked up): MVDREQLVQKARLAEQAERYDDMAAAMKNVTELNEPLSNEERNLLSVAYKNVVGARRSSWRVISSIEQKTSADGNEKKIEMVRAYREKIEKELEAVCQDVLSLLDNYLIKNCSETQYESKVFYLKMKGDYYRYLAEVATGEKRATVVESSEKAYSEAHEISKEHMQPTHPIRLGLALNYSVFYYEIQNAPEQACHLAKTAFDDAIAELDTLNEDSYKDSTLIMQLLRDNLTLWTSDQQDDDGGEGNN
UniProt Q04206, sequence (whole entry, looked up): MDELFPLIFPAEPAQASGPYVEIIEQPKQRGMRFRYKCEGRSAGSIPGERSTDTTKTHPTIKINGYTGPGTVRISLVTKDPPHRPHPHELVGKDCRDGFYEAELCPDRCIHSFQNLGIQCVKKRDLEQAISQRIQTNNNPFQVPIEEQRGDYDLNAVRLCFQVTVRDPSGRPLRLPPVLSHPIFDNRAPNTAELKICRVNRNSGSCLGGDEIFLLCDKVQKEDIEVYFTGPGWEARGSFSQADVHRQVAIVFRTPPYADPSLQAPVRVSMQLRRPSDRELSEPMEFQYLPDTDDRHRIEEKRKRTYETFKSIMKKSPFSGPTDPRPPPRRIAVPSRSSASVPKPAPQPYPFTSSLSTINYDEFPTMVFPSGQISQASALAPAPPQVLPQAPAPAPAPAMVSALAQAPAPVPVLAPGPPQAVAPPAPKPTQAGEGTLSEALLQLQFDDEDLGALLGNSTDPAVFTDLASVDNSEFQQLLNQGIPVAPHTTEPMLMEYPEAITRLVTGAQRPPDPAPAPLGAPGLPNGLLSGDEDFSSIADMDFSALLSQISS

SMILES | target or system | assay | setting | scale | endpoint | result
COc1ccc([C@H]2CNC(=O)C2)cc1OC1CCCC1 | Nuclear receptor subfamily 2 group C member 2 ligand-binding domain | SPR imaging |  |  | Kd | 0.0165 nM
Cc1nc2ccc(NC(=O)NCc3ccccc3)cc2[nH]1 | sample A patient iPSC-derived NPCs | MTS | 10 µM, 24 h | reference: vehicle | viability | 102 ± 4.48%
CN(C)C(=O)N1CCN(C(=O)c2ccc(C=O)cc2)CC1 | YWHAG/RELA phospho-Ser45 p65 peptide | ternary complex formation, stabilizer, fluorescence anisotropy |  |  | EC50 | > 1000 µM
COc1cc2ncnc(Nc3ccc(Oc4ccccc4)cc3C)c2cc1OC | COLO 205 (BRAF V600E) | resazurin | 0.3 µM, 72 h, added: trametinib 0 nM |  | viability | 100%
Cc1cc(Nc2nn(-c3ccccc3)c(=O)c3ccccc23)n[nH]1 | OCI-Ly1 |  | 0.1 µM, 120 h |  | viability | 231%
CC(=O)c1nn(-c2ccc(Cl)cc2)/c(=N/N=C(\C)c2ccc(NC(=O)c3ccc(C)cc3)cc2)s1 | MCF7 |  | 0.078 µM |  | viability | 86.7%
COc1cc2ncnc(Nc3ccc(Oc4ccccc4)c(C)c3C)c2cc1OC | COLO 205 (BRAF V600E) | resazurin | 0.1 µM, 72 h, added: trametinib | reference: DMSO | viability | 101%
N#CC[C@H](C1CCCC1)n1cc(-c2ncnc3[nH]ccc23)cn1 | Nuclear receptor subfamily 2 group C member 2 ligand-binding domain | SPR imaging |  |  | Kd | 0.123 nM
COc1cc(OC)c2c(=O)[nH]c(-c3cc(C)c(OCCO)c(C)c3)nc2c1 | OCI-Ly1 |  | 0.1 µM, 120 h |  | viability | 179%
CCCCCCCC(=O)c1c(O)cc(O)cc1CC(=O)OCC | COS-7 |  | 10 µM, 24 h, 0.1% DMSO, unit not given | reference: vehicle control | apoptotic cells | 0.48 ± 0.16
NCc1cc2c(cc1F)C(=O)N(C1CCC(=O)NC1=O)C2 (stereo not shown) | KG-1 | CellTiter-Glo | concentration not given, 10% FBS |  | viability | decreased
O=C(O)CCNc1cc(N2CCc3ccccc3CC2)nc(-c2ccccn2)n1 | OCI-Ly1 |  | 0.5 µM, 120 h |  | viability | 132%
CCOC(=O)Nc1ccc(NCc2ccc(F)cc2)nc1N | sample A patient iPSC-derived NPCs | MTS | 10 µM, 24 h | reference: vehicle | viability | 113 ± 3.17%
COc1c(O)c(C)cc2c1C(=O)c1c(ccc(O)c1O)C2=O | HepaRG co-cultured with HK-2 | MTT | 33.33 µM, 24 h | reference: untreated control | cell viability | 95.9 ± 14.1%
Cc1cccc(-c2[nH]c(CNc3ccccc3F)nc2-c2ccc3ncnn3c2)n1 | bone marrow CD138+ myeloma cells | XTT | 1.2 µM, mean of three patients |  | viability | 16%
O=Cc1ccc([N+](=O)[O-])c(N2CCCC(O)C2)c1 (stereo not shown) | YWHAG/RELA phospho-Ser45 p65 peptide | ternary complex formation, stabilizer, fluorescence anisotropy |  |  | EC50 | > 1000 µM

SMILES | target or system | assay | setting | scale | endpoint | result
FC(F)(F)c1ccc(COc2ccc3nc[nH]c3c2)cc1 | sample A patient iPSC-derived NPCs | MTS | 10 µM, 24 h | reference: vehicle | viability | 105.3 ± 0.93%
NC(=O)c1cccc(NC(=O)/C=C/c2c[nH]c3ccccc23)c1 | OCI-Ly1 |  | 0.5 µM, 120 h |  | viability | 114%
OCc1nc2ccc(NCc3ccc(F)cc3)cc2[nH]1 | sample A patient iPSC-derived NPCs | MTS | 10 µM, 24 h | reference: vehicle | viability | 135 ± 11%
CCOC(=O)Nc1cc(-c2ccc(C)c(NS(C)(=O)=O)c2)nn2c(C)nnc12 | OCI-Ly1 |  | 0.5 µM, 120 h |  | viability | 21.6%
Cc1ccc(CNC(=O)Cn2cc(CSc3nc4ccccc4[nH]3)nn2)cc1 | Caco-2 | MTT | 125 ppm |  | viability | 13.1%
Fc1ccc(CN(Cc2ccc(F)cc2)c2ccc3scnc3c2)cc1 | sample A patient iPSC-derived NPCs | MTS | 10 µM, 24 h | reference: vehicle | viability | 131 ± 15.4%
Nc1cccc2c1C(=O)N(C1CCC(=O)NC1=O)C2=O (stereo not shown) | MM1.S | XTT | 1.2 µM | reference: untreated | viability | 18%
Clc1ccc(C(c2c[nH]c3ccccc23)c2c[nH]c3ccccc23)cc1 | COS-7 |  | 10 µM, 24 h, 0.1% DMSO, unit not given | reference: vehicle control | apoptotic cells | 4.2 ± 0.13
CNCc1ccc(-c2[nH]c3cc(F)cc4c3c2CCNC4=O)cc1 | OCI-Ly1 |  | 0.5 µM, 120 h |  | viability | 155%
Cc1nc2cc(NCc3ccc(F)cc3)ccc2s1 | sample A patient iPSC-derived NPCs | MTS | 10 µM, 24 h | reference: vehicle | viability | 98 ± 0.6%
Cc1cc(=O)oc2cc(NC(=O)CCCCCCC(=O)NO)ccc12 | OCI-Ly1 |  | 1 µM, 120 h |  | viability | 24%
FC(F)(F)c1ccc(CNc2ccc3ncsc3c2)cc1 | sample A patient iPSC-derived NPCs | MTS | 10 µM, 24 h | reference: vehicle | viability | 131 ± 12.3%
Nc1cccc2c1CN(C1CCC(=O)NC1=O)C2=O (stereo not shown) | bone marrow CD138+ myeloma cells | XTT | 0.6 µM, mean of three patients |  | viability | 104%
Cc1cn([C@H]2C[C@H](O)[C@@H](CO)O2)c(=O)nc1N | OCI-Ly1 |  | 0.5 µM, 120 h |  | viability | 166%
Cc1nc2ccc(OCc3ccc(OC(F)(F)F)cc3)cc2[nH]1 | sample A patient iPSC-derived NPCs | MTS | 10 µM, 24 h | reference: vehicle | viability | 136 ± 8.75%

For quick reference, copied from above:
SMILES | target or system | assay | setting | scale | endpoint | result
Clc1ccc(C(c2c[nH]c3ccccc23)c2c[nH]c3ccccc23)cc1 | COS-7 |  | 10 µM, 24 h, 0.1% DMSO, unit not given | reference: vehicle control | apoptotic cells | 4.2 ± 0.13
CN(C)C(=O)N1CCN(C(=O)c2ccc(C=O)cc2)CC1 | YWHAG/RELA phospho-Ser45 p65 peptide | ternary complex formation, stabilizer, fluorescence anisotropy |  |  | EC50 | > 1000 µM
N#CC[C@H](C1CCCC1)n1cc(-c2ncnc3[nH]ccc23)cn1 | Nuclear receptor subfamily 2 group C member 2 ligand-binding domain | SPR imaging |  |  | Kd | 0.123 nM
Nc1cccc2c1C(=O)N(C1CCC(=O)NC1=O)C2=O (stereo not shown) | MM1.S | XTT | 1.2 µM | reference: untreated | viability | 18%
